Results gathered from unrelated publications.
“And” joins repeats or separate records; there may be more than shown. Numbers after ± are the reported error.
PLA2G5: Phospholipase A2 group V (PLA2G5, Homo sapiens, UniProt P39877)
Sequence of UniProt P39877 (whole entry, looked up): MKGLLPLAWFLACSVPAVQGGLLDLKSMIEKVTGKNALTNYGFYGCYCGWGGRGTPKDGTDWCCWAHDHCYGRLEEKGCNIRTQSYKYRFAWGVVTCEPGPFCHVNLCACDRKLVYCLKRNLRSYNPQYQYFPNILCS
PSMB6: Proteasome subunit beta type-6 (PSMB6, Homo sapiens, UniProt P28072)
Sequence of UniProt P28072 (whole entry, looked up): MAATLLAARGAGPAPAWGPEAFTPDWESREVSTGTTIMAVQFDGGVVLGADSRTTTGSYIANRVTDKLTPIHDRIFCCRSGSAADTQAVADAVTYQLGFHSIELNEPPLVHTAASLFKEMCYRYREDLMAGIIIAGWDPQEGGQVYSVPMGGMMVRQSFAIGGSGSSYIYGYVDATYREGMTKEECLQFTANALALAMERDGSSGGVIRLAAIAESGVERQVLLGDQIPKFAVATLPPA
KIT: Mast/stem cell growth factor receptor Kit (KIT, Homo sapiens, UniProt P10721)
Sequence of UniProt P10721 (whole entry, looked up): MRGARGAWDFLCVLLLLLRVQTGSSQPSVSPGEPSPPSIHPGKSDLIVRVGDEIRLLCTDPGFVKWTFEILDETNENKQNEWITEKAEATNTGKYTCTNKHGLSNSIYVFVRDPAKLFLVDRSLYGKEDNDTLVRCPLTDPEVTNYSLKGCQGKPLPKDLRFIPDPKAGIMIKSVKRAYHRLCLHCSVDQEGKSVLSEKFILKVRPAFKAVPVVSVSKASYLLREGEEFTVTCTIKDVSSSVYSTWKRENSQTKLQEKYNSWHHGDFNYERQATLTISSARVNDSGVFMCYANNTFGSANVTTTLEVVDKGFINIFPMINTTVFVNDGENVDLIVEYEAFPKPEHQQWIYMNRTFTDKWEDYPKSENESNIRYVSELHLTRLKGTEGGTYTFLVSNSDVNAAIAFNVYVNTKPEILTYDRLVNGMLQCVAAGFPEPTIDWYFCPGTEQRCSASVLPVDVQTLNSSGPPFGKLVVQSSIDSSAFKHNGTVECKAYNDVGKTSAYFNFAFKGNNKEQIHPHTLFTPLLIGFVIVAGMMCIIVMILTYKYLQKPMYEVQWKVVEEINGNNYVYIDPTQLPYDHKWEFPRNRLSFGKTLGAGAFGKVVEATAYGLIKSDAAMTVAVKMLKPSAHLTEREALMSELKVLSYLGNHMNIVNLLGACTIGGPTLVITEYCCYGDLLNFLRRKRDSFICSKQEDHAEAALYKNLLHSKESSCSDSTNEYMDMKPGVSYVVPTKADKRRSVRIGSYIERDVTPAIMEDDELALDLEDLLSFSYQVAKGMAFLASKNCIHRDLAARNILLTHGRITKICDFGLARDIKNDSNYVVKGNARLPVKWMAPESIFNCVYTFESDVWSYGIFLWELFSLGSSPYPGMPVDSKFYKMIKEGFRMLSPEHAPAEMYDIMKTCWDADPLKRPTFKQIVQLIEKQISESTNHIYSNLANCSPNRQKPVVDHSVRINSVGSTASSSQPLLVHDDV
KCNH2: Voltage-gated inwardly rectifying potassium channel KCNH2 (KCNH2, Homo sapiens, UniProt Q12809)
Sequence of UniProt Q12809 (whole entry, looked up): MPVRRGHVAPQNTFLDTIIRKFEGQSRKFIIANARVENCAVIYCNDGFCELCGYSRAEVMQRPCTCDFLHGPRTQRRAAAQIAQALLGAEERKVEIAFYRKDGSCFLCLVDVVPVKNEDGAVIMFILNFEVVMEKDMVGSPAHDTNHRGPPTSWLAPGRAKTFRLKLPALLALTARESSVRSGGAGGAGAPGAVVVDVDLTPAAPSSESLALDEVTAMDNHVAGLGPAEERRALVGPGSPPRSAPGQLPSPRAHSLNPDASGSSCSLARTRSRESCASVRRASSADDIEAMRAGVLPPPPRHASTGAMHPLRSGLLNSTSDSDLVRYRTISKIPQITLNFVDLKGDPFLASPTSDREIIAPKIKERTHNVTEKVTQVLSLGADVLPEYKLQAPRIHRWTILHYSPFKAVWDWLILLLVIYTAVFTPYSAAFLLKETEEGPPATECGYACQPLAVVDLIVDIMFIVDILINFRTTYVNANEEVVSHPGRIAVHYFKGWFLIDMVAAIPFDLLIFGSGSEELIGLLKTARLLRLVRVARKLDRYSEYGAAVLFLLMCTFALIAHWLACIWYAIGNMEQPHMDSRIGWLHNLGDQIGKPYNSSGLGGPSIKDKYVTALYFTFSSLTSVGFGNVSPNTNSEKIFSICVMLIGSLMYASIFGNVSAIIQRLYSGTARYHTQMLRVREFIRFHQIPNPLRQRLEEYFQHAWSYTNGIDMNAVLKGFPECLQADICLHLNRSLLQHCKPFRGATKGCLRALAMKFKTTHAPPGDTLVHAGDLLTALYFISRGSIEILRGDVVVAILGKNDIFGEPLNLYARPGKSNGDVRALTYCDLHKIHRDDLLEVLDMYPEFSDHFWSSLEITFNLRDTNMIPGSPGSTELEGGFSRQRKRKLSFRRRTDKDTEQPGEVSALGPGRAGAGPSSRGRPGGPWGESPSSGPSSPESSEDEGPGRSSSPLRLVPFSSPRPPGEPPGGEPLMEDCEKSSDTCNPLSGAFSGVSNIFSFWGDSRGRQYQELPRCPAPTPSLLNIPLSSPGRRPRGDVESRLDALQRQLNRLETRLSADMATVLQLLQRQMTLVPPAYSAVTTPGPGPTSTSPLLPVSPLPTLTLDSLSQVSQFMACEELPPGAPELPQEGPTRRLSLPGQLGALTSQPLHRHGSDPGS
USP49 ZnF-UBD domain: Ubiquitin carboxyl-terminal hydrolase 49, ZnF-UBD domain (USP49, Homo sapiens, UniProt Q70CQ1)
Sequence of UniProt Q70CQ1 (whole entry, looked up): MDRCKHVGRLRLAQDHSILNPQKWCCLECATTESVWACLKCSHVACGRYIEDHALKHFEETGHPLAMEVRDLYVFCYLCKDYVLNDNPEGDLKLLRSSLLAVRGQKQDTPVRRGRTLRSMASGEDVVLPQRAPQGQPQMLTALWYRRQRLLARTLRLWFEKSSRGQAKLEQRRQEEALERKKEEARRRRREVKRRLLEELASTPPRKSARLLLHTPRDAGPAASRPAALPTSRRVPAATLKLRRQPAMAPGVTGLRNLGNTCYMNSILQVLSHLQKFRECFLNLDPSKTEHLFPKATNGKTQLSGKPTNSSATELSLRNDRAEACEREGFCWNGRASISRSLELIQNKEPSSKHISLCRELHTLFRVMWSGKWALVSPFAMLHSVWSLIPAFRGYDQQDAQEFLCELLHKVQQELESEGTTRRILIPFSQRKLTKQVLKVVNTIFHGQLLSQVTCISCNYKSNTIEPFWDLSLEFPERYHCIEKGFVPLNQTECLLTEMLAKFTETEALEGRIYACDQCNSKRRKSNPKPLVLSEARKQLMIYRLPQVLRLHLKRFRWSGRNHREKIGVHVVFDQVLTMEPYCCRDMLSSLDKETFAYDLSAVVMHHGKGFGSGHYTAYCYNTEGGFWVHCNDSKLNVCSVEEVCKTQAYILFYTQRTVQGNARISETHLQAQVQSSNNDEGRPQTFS
Toll-like receptor 3: Toll-like receptor 3 (Homo sapiens, UniProt O15455)
Sequence of UniProt O15455 (whole entry, looked up): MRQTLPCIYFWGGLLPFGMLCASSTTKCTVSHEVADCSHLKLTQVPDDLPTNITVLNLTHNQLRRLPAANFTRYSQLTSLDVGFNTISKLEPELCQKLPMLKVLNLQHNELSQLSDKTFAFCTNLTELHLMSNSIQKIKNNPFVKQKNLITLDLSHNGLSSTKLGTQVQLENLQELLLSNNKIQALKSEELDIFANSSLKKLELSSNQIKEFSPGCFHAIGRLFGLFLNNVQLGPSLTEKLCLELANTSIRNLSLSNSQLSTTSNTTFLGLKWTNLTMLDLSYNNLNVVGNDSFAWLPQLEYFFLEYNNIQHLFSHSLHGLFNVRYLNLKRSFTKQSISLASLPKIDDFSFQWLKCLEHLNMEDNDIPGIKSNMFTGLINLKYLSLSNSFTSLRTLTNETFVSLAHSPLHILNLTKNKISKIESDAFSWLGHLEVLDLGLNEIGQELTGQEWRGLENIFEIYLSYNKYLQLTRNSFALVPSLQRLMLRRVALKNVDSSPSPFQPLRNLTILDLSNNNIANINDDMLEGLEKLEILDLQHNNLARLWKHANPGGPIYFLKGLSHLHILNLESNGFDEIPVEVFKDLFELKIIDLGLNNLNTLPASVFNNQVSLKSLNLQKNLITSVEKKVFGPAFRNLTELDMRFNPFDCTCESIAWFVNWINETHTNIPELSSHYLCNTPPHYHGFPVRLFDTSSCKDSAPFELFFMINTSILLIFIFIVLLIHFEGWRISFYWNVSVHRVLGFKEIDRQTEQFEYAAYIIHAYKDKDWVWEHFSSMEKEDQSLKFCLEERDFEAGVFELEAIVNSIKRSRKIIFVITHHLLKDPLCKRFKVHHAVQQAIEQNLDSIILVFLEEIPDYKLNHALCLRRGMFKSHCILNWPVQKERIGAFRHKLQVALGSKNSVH
IRAK1: Interleukin-1 receptor-associated kinase 1 (IRAK1, Homo sapiens, UniProt P51617)
CA1: Carbonic anhydrase 1 (CA1, Homo sapiens, UniProt P00915)
Sequence of UniProt Q9UNQ0 (whole entry, looked up): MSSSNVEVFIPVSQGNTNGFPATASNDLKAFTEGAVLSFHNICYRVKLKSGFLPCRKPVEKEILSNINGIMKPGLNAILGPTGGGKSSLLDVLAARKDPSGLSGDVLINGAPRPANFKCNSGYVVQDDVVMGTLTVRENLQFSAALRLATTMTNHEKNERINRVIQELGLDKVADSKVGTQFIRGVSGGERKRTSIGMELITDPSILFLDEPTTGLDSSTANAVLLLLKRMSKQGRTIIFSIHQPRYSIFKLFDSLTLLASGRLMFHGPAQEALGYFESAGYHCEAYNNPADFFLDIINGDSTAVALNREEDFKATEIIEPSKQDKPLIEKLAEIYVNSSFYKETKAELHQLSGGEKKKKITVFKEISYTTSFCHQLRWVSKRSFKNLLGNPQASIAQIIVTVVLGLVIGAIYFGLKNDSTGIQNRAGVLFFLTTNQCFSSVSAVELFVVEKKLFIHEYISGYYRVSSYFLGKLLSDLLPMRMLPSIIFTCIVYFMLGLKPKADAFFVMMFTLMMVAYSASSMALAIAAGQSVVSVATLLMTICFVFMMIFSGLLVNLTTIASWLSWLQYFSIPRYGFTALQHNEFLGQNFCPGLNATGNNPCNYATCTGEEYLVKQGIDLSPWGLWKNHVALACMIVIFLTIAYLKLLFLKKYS
Sequence of UniProt P00915 (whole entry, looked up): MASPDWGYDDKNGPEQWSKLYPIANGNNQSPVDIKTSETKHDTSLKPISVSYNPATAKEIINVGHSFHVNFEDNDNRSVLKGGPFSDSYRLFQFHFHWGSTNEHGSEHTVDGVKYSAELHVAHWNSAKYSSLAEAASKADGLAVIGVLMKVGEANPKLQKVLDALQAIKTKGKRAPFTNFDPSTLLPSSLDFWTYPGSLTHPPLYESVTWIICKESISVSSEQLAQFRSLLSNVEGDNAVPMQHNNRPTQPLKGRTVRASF

The IC50 of `COc1cc(/C=N/n2c(C)nc3ccc(C)cc3c2=O)ccc1OCc1ccccc1` is reported as 70.3 ± 1.89 µM (PLA2G5; enzyme activity, inhibitor, colorimetric).
`Cc1ccc(S(=O)(=O)n2cc(/C=N/NC(=S)NCc3ccccc3)c3ccccc32)cc1` has an IC50 of 37.6 ± 0.85 µM (mushroom tyrosinase; enzyme activity, inhibitor; added: L-DOPA substrate).
The IC50 of `COC1CCC(C[C@H](NC(=O)[C@H](CC(C)C)NC(=O)c2cnc(C)s2)C(=O)N[C@H](/C=C/S(C)(=O)=O)Cc2ccc(CN)cc2)CC1` (stereo partly drawn) is reported as greater than 10 µM (PSMB6; competitive ABPP; Raji cell lysate).
The IC50 of `O=C(Nc1cccc2c(=O)cc(-c3nnn[nH]3)oc12)c1ccc(OCCCCc2ccccc2)cc1` is reported as 28.6 µM (LRRC8A/LRRC8C (Homo sapiens, UniProt Q8IWT6+Q8TDW0, Y124F/Y126F); ion current, inhibitor, whole-cell patch clamp; HCT116 LRRC8-/- transfected; at +100 mV).
`CC[C@@H]1[C@H](F)C(=O)N[C@@H]1COc1nccc2cc(C(N)=O)c(OC)cc12` has an IC50 of 3.3 µM (TP53RK (Homo sapiens, UniProt Q96S44); ATP-site binding, ActivX kinase profiling; THP-1 cell lysate; PRPK ATP-loop probe peptide).
`Cc1ccc(S(=O)(=O)n2cc(/C=N/NC(=S)Nc3cccc(Cl)c3Cl)c3ccccc32)cc1` has an IC50 of 11.5 ± 0.36 µM (mushroom tyrosinase; enzyme activity, inhibitor; added: L-DOPA substrate).
`Nc1ncnc2c1ncn2C1CCCC1` has an IC50 of 1.7 ± 0.2 µM (Inositol-tetrakisphosphate 1-kinase (Homo sapiens, UniProt Q13572); phosphatase activity, inhibitor, radiometric).
`COc1cc2c(cc1OC)C1CC(=O)C(CC(C)C)CN1CC2` (stereo not drawn) gave an IC50 of 1.03 µM (SLC18A2 (Homo sapiens, UniProt Q05940, I308V/L37F/Y433F); FFN206 uptake, inhibitor, fluorescence imaging; L37F/I308V/Y433F mutant, added: FFN206 5 µM).
`COc1ccccc1N1CCN(C(=O)c2ccc(S(=O)(=O)n3cnc(C4CCCCC4)n3)cc2)CC1` gave an IC50 of 0.035 µM (AKR1C3 (Homo sapiens, UniProt P42330); probe labelling, competitive ABPP; COLO 205).
`c1ccc(CN(Cc2ccccn2)C(c2ccccn2)c2ccccn2)nc1` gave an IC50 of greater than 1000 µM (Proteasome subunit beta type-6, caspase-like site (PSMB6, Homo sapiens, UniProt P28072); caspase-like activity, inhibitor, purified 20S proteasome; pH 7.4, added: 20 µM Z-LLE-AMC).
`CC(=O)N1C[C@@H](CCN2CCC(c3c[nH]c4ccccc34)CC2)c2ccccc21` has an IC50 of 1.86 µM (SLC6A4 (Homo sapiens, UniProt P31645); inhibitor).
For `Cc1ccc(NC(=O)c2ccc(C)c(C(F)(F)F)c2)cc1C#Cc1nn(C2CCC(O)CC2)c2ncnc(N)c12` (stereo not drawn), the IC50 was 3.16 µM (KIT; inhibitor, radiometric kinase; added: ATP 10 µM).
`CN1CCN(c2cnc3c(cc(C(=O)NCc4ccc(Cl)cc4)c(=O)n3CC(=O)N3CC(C)(F)C3)n2)C1=O` gave an IC50 of > 30 µM and 33 µM (KCNH2; ion current, automated patch clamp; CHO expressing hERG).
With `Cc1ccc(S(=O)(=O)n2cc(/C=N/NC(=S)Nc3ccc(F)cc3)c3ccccc32)cc1` the IC50 was 21.4 ± 0.48 µM (mushroom tyrosinase; enzyme activity, inhibitor; added: L-DOPA substrate).
`Cc1ncc(C(=O)N[C@@H](CC(C)C)C(=O)N[C@@H](CC2CCCC3CCCCC32)C(=O)N[C@H](/C=C/S(C)(=O)=O)Cc2ccc(CN)cc2)s1` (stereo partly drawn) gave an IC50 of greater than 10 µM (PSMB6; competitive ABPP; Raji cell lysate).
`O=C(O)CCC1=Nc2cccc3cccc(c23)N1` has a Kd of greater than 1000 µM (USP49 ZnF-UBD domain).
`Cc1nn(C)c2ncc(C(=O)NCc3ccccc3)c(Cl)c12` gave an IC50 of greater than 63 µM (MDH2 (Sus scrofa, UniProt P00346); enzyme activity, reporter counter-screen; native enzyme).
`O=c1c2ccccc2c(Cc2ccc(Cl)cc2)nn1C1CCCNCC1` (stereo not drawn) has an IC50 of 5.1 µM (CatSper channel complex (Homo sapiens, UniProt Q7RTX7+Q86XQ3+Q8NEC5+Q96P56); calcium influx, inhibitor, FLIPR; human sperm; added: high pH, high potassium).
For `CC(C)C[C@H](NC(=O)c1cnccn1)C(=O)N[C@@H](C)C(=O)N[C@H](/C=C/S(C)(=O)=O)Cc1ccc(CN)cc1`, the IC50 was greater than 10 µM (PSMB6; competitive ABPP; Raji cell lysate).
`Cc1nc2ccc(Br)cc2c(=O)n1/N=C/c1ccc(C(=O)O)cc1` gave an IC50 of 33 ± 1.37 µM (PLA2G5; enzyme activity, inhibitor, colorimetric).
The IC50 of `CCOC(=O)C(C)(COP(=O)(OC)OCCCCCCNC(=O)c1ccc(C(=O)OC)c(N)c1)C(=O)CSC(C)=O` (stereo not drawn) is reported as 234 µM (PDE6D (Homo sapiens, UniProt O43924)).
With `Cc1c2ccncc2c(C)c2c1[nH]c1ccc(O)cc12` the IC50 was 0.9 ± 0.11 µM (Toll-like receptor 3; reporter gene, inhibitor; HEK-Blue hTLR3; added: poly(I:C)).
`COc1ccccc1C(=O)Nc1ccc(-c2nc3ccccc3[nH]2)cc1` has an IC50 of 18.6 µM (Tyrosine-protein kinase SYK, with FCER1G (SYK, Homo sapiens, UniProt P43405); inhibitor, TR-FRET; counter screen).
`COc1ccc(C[C@H](NC(=O)[C@H](C)NC(=O)CN2CCOCC2)C(=O)N[C@@H](CC2CCC(C3CCCCC3)CC2)C(=O)[C@@]2(C)CO2)cc1` (stereo partly drawn) gave an IC50 of greater than 100 µM (PSMB6; inhibitor, competitive ABPP; Raji cell lysate).
The IC50 of `Cc1cnc(-c2ccc(-c3ccc(NC(=O)Nc4c(F)cc(F)cc4F)cc3F)c3c2C(=O)NC3)[nH]1` is reported as 0.00062 µM (CSF1R (Homo sapiens, UniProt P07333); kinase activity, inhibitor, cell-free; 90 min, 28 °C, added: ATP).
`C=CC(=O)Nc1cccc(Oc2nc(Nc3ccc(N4CCN(C)CC4)cc3)nc3ccoc23)c1` has an IC50 of greater than 5 µM (IRAK1).
`CN1CCN(c2ccc(Nc3ncc4cc(C#N)c(=O)n(C5CCCC5)c4n3)cc2)CC1` has an IC50 of 1.79 µM (IRAK1).
For `CC(C)C[C@H](NC(=O)[C@@H](O)[C@H](N)Cc1ccccc1)C(=O)O`, the IC50 was 0.2 µM (rat neuron-specific aminopeptidase; enzyme activity, inhibitor).
`CC(=O)SCCNC(=O)CCNC(=O)[C@H](O)C(C)(C)COP(=O)(O)OP(=O)(O)OC[C@H]1O[C@@H](n2cnc3c(N)ncnc32)[C@H](O)[C@@H]1OP(=O)(O)O` has an IC50 of greater than 100 µM (uncharacterized protein (Aspergillus fumigatus, UniProt B0XYS0); enzyme activity, Kinase-Glo).
With `C1=Cc2cccc3cccc1c23` the IC50 was 33 µM (Cytochrome P450 2A6 (CYP2A6, Homo sapiens, UniProt P11509); enzyme activity, inhibitor; 20 min, pH 7.4).
`C#Cc1ccc(Oc2ccnc(N3CCC(NC(=S)Nc4cccnc4)CC3)c2Cl)c(Cl)c1` has an IC50 of 0.072 µM (Abhd12 (Mus musculus, UniProt Q99LR1); lyso-PS hydrolysis, inhibitor; HEK293T transfected membrane lysate; added: lyso-PS).
`O=c1nc(SCc2cc(F)cc(C(F)(F)F)c2)nc(SCc2ccc3nc(Cl)ccc3c2)[nH]1` has an IC50 of 31.2 µM (TOP2A (Homo sapiens, UniProt P11388); ATPase activity, ATP-competitive inhibitor; added: ATP 1 mM).
`Cc1ncc(C(=O)N[C@@H](CC2CCC(C)CC2)C(=O)N[C@@H](CC(C)C)C(=O)N[C@H](/C=C/S(C)(=O)=O)Cc2ccc(CN)cc2)s1` (stereo partly drawn) has an IC50 of greater than 10 µM (PSMB6; competitive ABPP; Raji cell lysate).
For `COc1ccc(F)cc1C(=O)NCc1ccc(-c2nn([C@@H](C)C(F)(F)F)c(N)c2C(N)=O)cc1`, the IC50 was greater than 5 µM (CSK (Homo sapiens, UniProt P41240); target engagement, NanoBRET tracer displacement; HEK293; above top tested dose).
`Cc1cc(N2CCc3c(c(C)nn3CC34CCC(NC(=O)[C@@H]5COCCN5)(CC3)CC4)C2)c2cnn(C)c2n1` has an IC50 of 0.008 ± 0.006 µM (TLR7 (Homo sapiens, UniProt Q9NYK1); IFNα release, antagonist; SLE patients, whole blood; added: ssRNA).
`OC1CCN(c2ccc(/C=N/NC(=S)NCc3ccc(Cl)cc3)cc2)CC1` gave an IC50 of 0.408 µM (CA1; enzyme activity, inhibitor).
With `CC1=CC(C)=[N+]2C1=Cc1ccc(CCCCCCCCCCCCCCCC(=O)O)n1[B-]2(F)F` the IC50 was 48.3 ± 8.57 µM (EIF2AK2 (Homo sapiens, UniProt P19525); autophosphorylation, inhibitor, Western blot; purified PKR).
The IC50 of `COc1ccc2c3c([nH]c2c1)[C@H](CC(C)C)N1C(=O)[C@H](CC(=O)NC(C)(C)C)NC(=O)[C@@H]1C3` is reported as 0.39 µM and 0.13 µM and 0.09 µM (ABCG2 (Homo sapiens, UniProt Q9UNQ0); inhibitor, refers to: protoporphyrin IX; A549; 2 h, added: 1 mM ALA).
`Cc1c2ccncc2c(C)c2c1[nH]c1ccc(CNC3CCCCC3)cc12` gave an IC50 of 0.09 ± 0.01 µM (Toll-like receptor 3; reporter gene, inhibitor; HEK-Blue hTLR3; added: poly(I:C)).
With `COc1ccc2c(=O)[nH]c3c(nnn3Cc3ccc(C)cc3)c2c1` the IC50 was 1.51 µM (PARP15 (Homo sapiens, UniProt Q460N3)).
`O=C(O)CCc1cnn(-c2ccccc2)c1` gave a Kd of 661 µM (USP49 ZnF-UBD domain).
For `COc1ccc(-c2cncc(N[C@@H](C)c3cccc(NC(=O)c4cncc(C)c4)c3)n2)cc1OC`, the IC50 was 0.02 µM (KIT).
`Cc1cnc(-c2ccc(-c3ccc(NC(=O)Nc4c(F)cc(F)cc4F)cc3F)c3c2C(=O)NC3)[nH]1` gave an IC50 of 0.362 µM (YES1 (Homo sapiens, UniProt P07947); enzyme activity, inhibitor, mobility shift; added: ATP 1 mM).
`CC1(F)CN(C(=O)Cn2c(=O)c(C(=O)NCc3ccc(Cl)cc3)cc3nc(N4CCN(CC(=O)O)C4=O)cnc32)C1` gave an IC50 of 22 µM (KCNH2; ion current, automated patch clamp; retest).
The IC50 of `Cc1nc(F)ccc1-c1cc(Cn2ccn(C)c2=N)cc(C(=O)NCc2ccc(Cl)c(Cl)c2)c1` is reported as 5.1 µM (WD repeat-containing protein 5, MLL4 complex (WDR5, Homo sapiens, UniProt P61964); MLL4 methyltransferase activity, inhibitor; added: H3 peptide substrate).
`Cc1ccc(S(=O)(=O)n2cc(/C=N/NC(=S)Nc3c(C)cccc3C)c3ccccc32)cc1` has an IC50 of 9.5 ± 0.26 µM (mushroom tyrosinase; enzyme activity, inhibitor; added: L-DOPA substrate).
The IC50 of `Cc1ncc(C(=O)N[C@H](C(=O)N[C@@H](CC(C)C)C(=O)N[C@H](/C=C/S(C)(=O)=O)Cc2ccc(CN)cc2)C2CCCCC2)s1` is reported as greater than 10 µM (PSMB6; competitive ABPP; Raji cell lysate).
`OC1CCN(c2ccc(/C=N/NC(=S)NCc3ccccc3)cc2)CC1` has an IC50 of 0.545 µM (CA1; enzyme activity, inhibitor).

Excerpt of the above:
`C#Cc1ccc(Oc2ccnc(N3CCC(NC(=S)Nc4cccnc4)CC3)c2Cl)c(Cl)c1` has an IC50 of 0.072 µM (Abhd12 (Mus musculus, UniProt Q99LR1); lyso-PS hydrolysis, inhibitor; HEK293T transfected membrane lysate; added: lyso-PS).
`O=C(O)CCC1=Nc2cccc3cccc(c23)N1` has a Kd of greater than 1000 µM (USP49 ZnF-UBD domain).
The IC50 of `O=C(Nc1cccc2c(=O)cc(-c3nnn[nH]3)oc12)c1ccc(OCCCCc2ccccc2)cc1` is reported as 28.6 µM (LRRC8A/LRRC8C (Homo sapiens, UniProt Q8IWT6+Q8TDW0, Y124F/Y126F); ion current, inhibitor, whole-cell patch clamp; HCT116 LRRC8-/- transfected; at +100 mV).
For `COc1ccc(F)cc1C(=O)NCc1ccc(-c2nn([C@@H](C)C(F)(F)F)c(N)c2C(N)=O)cc1`, the IC50 was greater than 5 µM (CSK (Homo sapiens, UniProt P41240); target engagement, NanoBRET tracer displacement; HEK293; above top tested dose).
